Published values gathered from unrelated publications.
Each numbered part is a random draw from the data of one study; scales do not carry over between parts.

Sample 1 — technique: competition protein-binding microarray; molecule type: double-stranded DNA, one strand shown; medium: in vitro; concentration: 2 µM; with: Pho4 competitor, 0.05 µM; reading: higher = stronger binding; all sequences stand within: … GTCTTGATTCGCTTGACGCTGCTG
Target: Centromere-binding protein 1, full length, His-tagged (CBF1, Saccharomyces cerevisiae, UniProt P17106, residues 1-351)
UniProt P17106, sequence (whole entry, looked up): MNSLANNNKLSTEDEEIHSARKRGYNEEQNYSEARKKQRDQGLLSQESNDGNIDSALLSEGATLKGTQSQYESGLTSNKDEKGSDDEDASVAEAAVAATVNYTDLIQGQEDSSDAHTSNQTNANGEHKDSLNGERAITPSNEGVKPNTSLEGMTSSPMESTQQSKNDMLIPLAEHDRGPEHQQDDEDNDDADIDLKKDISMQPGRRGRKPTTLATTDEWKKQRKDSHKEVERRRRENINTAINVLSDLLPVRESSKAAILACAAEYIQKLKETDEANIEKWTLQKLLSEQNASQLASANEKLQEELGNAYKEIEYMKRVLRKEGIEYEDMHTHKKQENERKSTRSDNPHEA
Setting: whole 60-bp probe, lowest competitor level
Sequence | fluorescence intensity [a.u.]
TAAGTGTGTCCCACACTCGTGGCAATTTTTCTTGAT | 84.6
CCACCCCAATTCCATCACGTCCATACCAGGGGCGTA | 78.9
AGCCTCGGAAGTCCAAGCGTGTCCTCCTCGAAAAAG | 80.1
CTTCTGTAAATTTGCTATGTGGGTGGACGCGCCCCG | 80.4
CCCAATTTTTAAAAACACGTGCCGACCAGGATTGGG | 2900
CTAACGAAGGTTTGTCACTCTACTTACAAGCCAAGT | 68.2
ATCTCTGTCAACTGCCTCGTGCTAAAAGCAGGATTG | 131
ATCAGGCATTCATTGACCGTGCCGAACAAACCAAGC | 61.9
TCCAAGACGGTTAATCTCGTGATGGATTTTGACTAC | 502
CGCCATTGTATGAATCTCGTGCCAGTCCCTTTTTAA | 166
CTGCGCCCGCCGTAGACCGTGACAAGGAAGCTCACC | 85.3
CGCAAATGGGCATTTGATGTGACGAAAAATTTGGAC | 85.4
CTAACGAAGGTTTGCACTGTGGGTGACAAGCCAAGT | 75.1
GACACTTCTTTGTATAACGTGACGGTGGTGTCGCCA | 411
CGTCCTAGTGATTGGAAGGTGGGTGCCATGAGGAAG | 71.4
TATATACATTGCCATCACGGGACTTAGCGTTAGTTC | 850
TTATAAGGTCGTTACTATCTTTATTGCAGTTAACAG | 75.3
GTCTTGTCTCATTGTCACACCACTTTCCCCACTTCA | 133
CTAACGAAGGTTTGCCAGGTGGGTGACAAGCCAAGT | 67.3

Sample 2 — organism: Saccharomyces cerevisiae; effect on: binding; technique: competitive growth deep sequencing; molecule type: peptide; strain: cyclin D2-Cln2 fusion strain; concentration: concentration not given; setting: peptide tiling library; reading: direction not given
Molecule | growth enrichment score
DWDTVERQEEEAPSWD | 0.76
HPESPPRKRLKSKGSD | 4.24
IFNKPECGRVQRAIFQ | -1.75
ASVLSKPIFCFVKD | -0.295
SNFFDVIKQLFSDEKN | -2.97

Sample 3 — technique: RNA Bind-n-Seq; molecule type: RNA; medium: in vitro; concentration: 365 nM; baseline: no-protein control; reading: higher = stronger binding
Target: RNA binding protein fox-1 homolog 2, RRM domain, GST-SBP tag (RBFOX2, Homo sapiens, UniProt O43251-10, residues 100-194)
Setting: natural RNA segment, single round, ends assumed
All sequences stand within: GGGAGUUCUACAGUCCGACGAUC … UGGAAUUCUCGGGUGCCAA
Construct (chain): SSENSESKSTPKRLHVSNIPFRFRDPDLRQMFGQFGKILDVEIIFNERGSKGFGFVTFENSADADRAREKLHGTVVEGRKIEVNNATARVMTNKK
Sequence | RBNS enrichment (R)
UACAGGUGAAUGUGCCACCUCCACAAAUGGCUUCUCCGAGUGAGUCACGUCACCUGGUGCGUGGAGGUGGAGCCUGCGGCUGGAGUAAGGCUUGCUGUGGGACGCCCUCG | 1.72
CAAAAUCAGUUGUAUUUACAAAACUCUACUUCAGUGUUUGUUUUAGUUUUUUUUUUUACUGAAACUUGUUUUUGUGAAUACUCUGUGCUUAGAAUUAAAUAUCACUUUCU | 0.849
GGCUCACCUUGCAGAACCAGUGACAAUCUUAUGAGUAUAAUGAACACUCAGCCAGGCCUGUCAUGAUUGGCUUUAUUUCUUUCAUCAUUCAUAAAAGUUUGCAUGUGUUU | 4.85
ACUUGCCCCGUGACUUCAGUUUUCUAUAGGAAUUUUAUUAAAGAGUGUUUAAUUUUGUUGUCCUUCUUAAUGUUCUCAGUCAAAUAAAUGGGUGGUUUCAUCUGUUUGGG | 0.604
GAGGGUACUGUCUCUAAUGUAUAUUUCUAGUGUUUACAGACACUAAGUGUGUAUAUGUAGUAACUAUUUACAGACCACGCAUCCUUAUACUGUGACUUCACCUAGAUCUU | 0.308
UAAGGAAUUUUAAUGUUACUUUUUGAGUAACGACUGAGUUACCAGCAUUCUUGAUUCUUAGCGCUUUCGUGGUGCGUGUUUAUGAGAUAUUAGAACAGCGGAGGCUCUAA | 0.284
UCUAUAAGGAUGAACAAAAGGUCUUUGAAAGUUUAUGCUUAAAAUUUAGGUGUGGGCUGAUUGGACUCCAACAUCUUUUGUACUCUUUUCAUGCUUUAUGUUAUGUAGAA | 0.984
UGUAGCCCCUCUUCUCUGCUCUGCCCCUCCUUUCCUGUCCCCUCCUUUAGCCCCUUCCCCCAAGGACUUCCUCCUGGAGACUCAGCCCCUAAGCUGGAACUGCUGUUAGG | 0.801

Sample 4 — technique: protein-binding microarray; molecule type: double-stranded DNA, one strand shown; medium: in vitro; concentration: 940 nM top; setting: 60-bp whole probe; with: salmon DNA 0.4 mg/ml; baseline: random background probes; reading: higher = stronger binding; all sequences stand within: GCCTAGCAC … GTCTTGATTCGCTTGACGCTGCTG
Target: Interferon regulatory factor 5, full length, phosphomimetic (IRF5, Homo sapiens, UniProt Q13568-2, residues 1-514, S451D/S453D/S456D/S462D)
Sequence | fitted relative affinity
TCAAGCCTCAGGCCTCACACTGTGCTA | -0.462 z-score
GACGGTTTCGGGACTGGCGACGTGCTA | 6.55 z-score
GACGGTTTCGGGACTGGGCACGTGCTA | 5.98 z-score
TCAACCATCCTATGTAGAACTGTGCTA | -0.0152 z-score
TCATTTTTGCTTTCTTTACTGTGCTAG | 2.27 z-score
TTAGGACTGGCTATCGGTTAGTGCTAG | -0.136 z-score
TCACCTTTCTCTCTGTGACTGTGCTAG | 1.66 z-score
TTAGGTATCGATCTCGGTTAGTGCTAG | 8.58 z-score
TTGGATTTCAGTTTCGATTAGTGCTAG | 9.16 z-score
TTACGTATCGACTATCGGTTAGTGCTA | 4.13 z-score
GACGGACTGGGACTAGGGACGTGCTAG | -0.403 z-score
TCATTTTTCATTATTGTACTGTGCTAG | 1.43 z-score
TTTGGACTGCTTCTCCTTTAGTGCTAG | -0.115 z-score
TCATGCTTGTGTTTATTACTGTGCTAG | 0.426 z-score
TAAGGTTTCCTTCTCCTTTAGTGCTAG | 1.64 z-score
TTTAGAAAGATTAGGGGTGCGTGCTAG | -0.12 z-score
TTAGGACTGCTACTGCTTAAGTGCTAG | -0.344 z-score
TTAGGTATCGACACTAGGTTAGTGCTA | 4.53 z-score
TCCCAAGTCTTGTTTTACAATGTGCTA | 0.427 z-score

For quick reference, copied from above (sample 1):
Sequence | fluorescence intensity [a.u.]
CCCAATTTTTAAAAACACGTGCCGACCAGGATTGGG | 2900
CGCAAATGGGCATTTGATGTGACGAAAAATTTGGAC | 85.4
GACACTTCTTTGTATAACGTGACGGTGGTGTCGCCA | 411
AGCCTCGGAAGTCCAAGCGTGTCCTCCTCGAAAAAG | 80.1
CTGCGCCCGCCGTAGACCGTGACAAGGAAGCTCACC | 85.3
